Published values of several laboratories.
Each numbered part is a random draw from the data of one study; scales do not carry over between parts.

Series 1
Target: PABPC1L2, full length, GST fusion (mouse, UniProt A0ABA7IW68)
Technique: RNAcompete
Molecule type: RNA
Matrix: in vitro
Tested at: 20 nM
Notes: 7-mer, probes averaged, single round
Baseline: mean of 7-mers
Direction: higher = stronger binding
Quantity: 7-mer Z-score
Target sequence (chain): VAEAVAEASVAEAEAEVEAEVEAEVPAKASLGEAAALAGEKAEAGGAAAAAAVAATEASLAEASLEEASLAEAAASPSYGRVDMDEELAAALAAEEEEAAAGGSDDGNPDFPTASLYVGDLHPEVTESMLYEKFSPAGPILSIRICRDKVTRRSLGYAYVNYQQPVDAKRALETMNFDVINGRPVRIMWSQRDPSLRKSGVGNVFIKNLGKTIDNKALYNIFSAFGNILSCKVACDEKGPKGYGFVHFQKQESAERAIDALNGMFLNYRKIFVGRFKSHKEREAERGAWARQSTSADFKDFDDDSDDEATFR
AUUAUAA: 0.323
CUCACAU: -0.213
AAGUAUU: -0.00652
UGACACC: -0.146
CGUCUGU: -0.407
UGCCACU: -0.249
UGCCAGG: -0.237
UCAGUUG: -0.229
GAAUGCC: -0.113
CACGUUU: -0.411

Series 2
Target: Histone acetyltransferase KAT6A, winged helix 2, GST fusion (KAT6A, Homo sapiens, UniProt Q92794, residues 85-181)
Technique: protein binding microarray
Molecule type: double-stranded DNA, one strand shown
Matrix: in vitro
Tested at: not given
Notes: 8-mer, flanks averaged, mean of 2 arrays, mostly near background
Baseline: not given
Direction: higher = stronger binding
Quantity: E-score
Construct (chain): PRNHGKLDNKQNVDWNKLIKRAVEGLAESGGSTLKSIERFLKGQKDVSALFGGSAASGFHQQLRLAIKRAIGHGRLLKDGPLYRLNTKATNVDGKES
TATTGCGA: 0.058
AAAGGTAC: 0.0092
AATCCTAG: 0.0261
CCAGATCG: 0.00365
GTTTAACA: -0.0357
AGGGCGGA: 0.196
GATTTCTA: 0.0734
GATTGACA: -0.0509
ACTAGGCT: -0.0201

Series 3
Target: Sal-like protein 4, full length isoform A (SALL4, Homo sapiens, UniProt Q9UJQ4, residues 1-1053)
Sequence of UniProt Q9UJQ4 (whole entry, looked up): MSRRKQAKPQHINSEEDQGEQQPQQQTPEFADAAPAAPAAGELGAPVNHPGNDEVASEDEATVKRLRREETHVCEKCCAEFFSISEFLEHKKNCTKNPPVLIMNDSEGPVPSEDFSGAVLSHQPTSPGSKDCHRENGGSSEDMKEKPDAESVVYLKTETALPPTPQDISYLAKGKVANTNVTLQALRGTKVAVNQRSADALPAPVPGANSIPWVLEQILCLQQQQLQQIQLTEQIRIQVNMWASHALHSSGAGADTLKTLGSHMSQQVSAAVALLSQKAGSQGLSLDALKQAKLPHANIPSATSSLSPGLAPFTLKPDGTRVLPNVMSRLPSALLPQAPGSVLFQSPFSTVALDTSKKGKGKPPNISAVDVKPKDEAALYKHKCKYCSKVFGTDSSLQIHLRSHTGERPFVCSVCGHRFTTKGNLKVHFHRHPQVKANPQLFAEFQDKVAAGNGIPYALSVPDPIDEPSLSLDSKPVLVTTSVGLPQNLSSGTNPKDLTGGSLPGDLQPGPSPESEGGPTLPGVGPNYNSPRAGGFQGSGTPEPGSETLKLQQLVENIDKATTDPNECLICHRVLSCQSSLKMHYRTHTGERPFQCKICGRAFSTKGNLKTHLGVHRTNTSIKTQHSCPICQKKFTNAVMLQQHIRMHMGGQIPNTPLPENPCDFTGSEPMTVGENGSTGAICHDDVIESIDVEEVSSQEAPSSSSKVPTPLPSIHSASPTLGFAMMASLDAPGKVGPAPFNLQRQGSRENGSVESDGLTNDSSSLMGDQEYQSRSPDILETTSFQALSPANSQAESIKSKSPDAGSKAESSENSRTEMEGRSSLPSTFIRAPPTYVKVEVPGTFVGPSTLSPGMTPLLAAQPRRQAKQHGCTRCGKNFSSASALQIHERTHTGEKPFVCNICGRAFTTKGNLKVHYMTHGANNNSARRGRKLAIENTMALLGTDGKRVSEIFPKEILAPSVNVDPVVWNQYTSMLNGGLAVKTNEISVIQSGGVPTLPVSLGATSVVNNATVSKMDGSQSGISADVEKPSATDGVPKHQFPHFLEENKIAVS
Technique: universal PBM
Molecule type: double-stranded DNA, one strand shown
Matrix: in vitro
Tested at: 600 nM
Notes: 8-mer, flanks averaged, mean of replicates
Direction: higher = stronger binding
Quantity: E-score
GTGACTAA: 0.154
ACATCACC: -0.0326
AAGGTTGA: 0.114
AAACGTCG: -0.0423
CGTAAGGC: -0.0641
AGAGTAAA: 0.139
ACTTCTCC: -0.117
AGAATGTC: 0.0212
AAAGTGCG: -0.0372
ACTGAGCG: -0.25
CCATAAAA: 0.301
TTTAAAAA: 0.325
CTTGTAAA: 0.182

Other studies, line by line
PhoQ, residues 284 288 289 292 302 303 TSTLRA — fold induction (PhoP, residues 12 14 15 18 19 NYFTV (Escherichia coli, UniProt P23836); Sort-seq, measured: YFP reporter; E. coli; PhoQ-PhoP variant library, together with: 10 µM Mg2+; baseline: high Mg2+ state, higher = stronger signaling): 1.35

A few entries again (series 3):
GTGACTAA: 0.154
ACATCACC: -0.0326
